Assay results gathered from unrelated publications.
Every numbered part comes from another study and shows a few of its results, in no order.

Block 1
Target: RING finger protein unkempt homolog, zinc fingers 1-6, GST-SBP tag (UNK, Homo sapiens, UniProt Q9C0B0, residues 30-357)
UniProt Q9C0B0, sequence (30-357, looked up): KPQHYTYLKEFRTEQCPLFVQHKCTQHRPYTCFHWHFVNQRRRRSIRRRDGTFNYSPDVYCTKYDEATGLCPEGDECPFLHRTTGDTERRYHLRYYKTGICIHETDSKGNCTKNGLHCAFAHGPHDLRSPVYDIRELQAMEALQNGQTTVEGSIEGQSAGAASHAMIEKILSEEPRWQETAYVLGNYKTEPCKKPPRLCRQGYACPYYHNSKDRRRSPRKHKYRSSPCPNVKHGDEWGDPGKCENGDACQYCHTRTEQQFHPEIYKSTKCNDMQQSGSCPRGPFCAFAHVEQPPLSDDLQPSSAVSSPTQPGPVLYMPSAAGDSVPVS
Technique: RNA Bind-n-Seq
Molecule type: RNA
Matrix: in vitro
Concentration: not given
Setting: RNA with constant flanks, human and mouse sites, ends assumed
Relative to: input RNA pool
Reading: higher = stronger binding
Oligonucleotide | bound/input enrichment
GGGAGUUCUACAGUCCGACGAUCCCGCCAUGAAUGAGGAAUACGACGUGAUCGUGCUGGGCACCGGCCUGACGUUAUACAAAAGGUUUAAAUUACCAGGACAACCGCCAGCAUCAAUGGGAAGAGGAAGAGACUGGAAUGUUGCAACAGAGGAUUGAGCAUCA | 0.388 ratio
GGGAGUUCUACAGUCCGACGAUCUUUGCUAGCCAAGGAAAGUAAAAUGUGAUUUUGUAACUGCACUAAACAUUUGUCAUGCUGUAGUUGCCAGCCCAGAAUAUUAGAAGUUACAAGACUGAUUUAAACCGUCUCUGAUUUAAUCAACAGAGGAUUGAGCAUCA | 0.54 ratio
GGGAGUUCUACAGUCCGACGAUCCUGCUUCCAAACACUGACAGGGAUCAAGUUUGUGGUCCUGGCAGACCCUAGGCAAGCUGGAAUAGAUUCUCUUCUCCGAAAAAUUUAUGAAAUUUACUCAGACUUUGCCCUCAAGAAUCCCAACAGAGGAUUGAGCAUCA | 0.278 ratio
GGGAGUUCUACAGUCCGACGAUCAUUCUACCCUGUGCAUAUCUUUCUGUGUAGAGAGAUGGCAAACUUGAAAAUACUUACCCAGAAAACAGUUCAGUUAUAGAAUGGUUAAGGAGCACUUGGCCCGCUUCCUAUUCCACAUUUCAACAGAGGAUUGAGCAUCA | 0.255 ratio
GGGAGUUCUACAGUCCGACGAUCGUCUGCGCGGAUAAAUGUCGUGGAGCCCUUUUUGUAUGGAAACGUUUUAAGCUAUUUAAAGCCUUUGGAAAAUACAGGAAGCUCCAGGGCUGGAGCACCUCUGAGAUGGAAUUGAUAACACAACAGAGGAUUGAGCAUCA | 0.414 ratio
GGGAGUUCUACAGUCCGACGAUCGAUAUCCAUUUGAAUGAAAUGGCUGGAGACAUCUUGGUUUUUCUGACUGGCCAGUUUGAAAUAGAAAAAAGUUGUGAGUUACUUUUUCAGAUGGCAGAGUCUGUUGAUUAUGAUUAUGAUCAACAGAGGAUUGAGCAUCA | 0.234 ratio
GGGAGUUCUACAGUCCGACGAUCGCCCAGGGCAAGAUGGAGGGCACAAAGGGGCUGGGGUGGGACGUGUACUAGGGAGGUGGGUGGGUGGGGUGAGCAGAAGGGCAUUGUGUGUUGUAUUAUGAUGUGUGUUAAUUUCCAUGGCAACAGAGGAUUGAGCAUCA | 6.06 ratio
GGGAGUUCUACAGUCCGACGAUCGCAGGGCUUUACUUUACACUCUCCUUUUUAUCCUUGUAUUUUUCUAAAGGUAACUGAUUGCUUAGAUGCUGAGUAAGGAAGAUACAUUGUUGUCAUUGUUUGGCUUUGGUAGAAUGAAACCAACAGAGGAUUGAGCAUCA | 0.207 ratio
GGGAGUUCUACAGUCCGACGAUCCUUGGAACAGGUAAAAUGCUUUUUCUUAUUAAUAUAAUUAUAAAACAGUAUUUUAUGUAACAGCUAUUCCCAUAUUCUAGGAGUGGCCUAAGAAAUGCGUGUUUCAGUGACUAGAUUAUACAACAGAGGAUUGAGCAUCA | 0.938 ratio
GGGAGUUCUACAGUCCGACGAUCGAAGAACAUUAUUCUUCUUCUCCAGAGAAGAUCCUAUCUCCUUUUUCACAAAAGUAUCAGGCUUGCAGAGCAAAUCUCCAGAGUACCAGCAGGUUGACUCUGUUUUCAGAAAUGGUUUAUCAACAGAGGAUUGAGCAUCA | 0.233 ratio
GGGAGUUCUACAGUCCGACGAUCCGUGGAAAUAUUGUCUAUAUUCACAUAAGAGAUAAGACAUGGGAUGUUCAUGAGUAUUUGAAUAGUCUUUUCGAAGAAUUAAAAUCUUGGAGAGAUGUAUACUGGCGAUUGUGGGGAACACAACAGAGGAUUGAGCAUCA | 0.2 ratio

Block 2
Target: Fragile X messenger ribonucleoprotein 1, C-terminal low-complexity region (Fmr1, Mus musculus, UniProt P35922)
Technique: RNA Bind-n-Seq
Molecule type: RNA
Matrix: in vitro
Concentration: 200 nM
Setting: whole 134-nt RNA, ends assumed
With: 150 mM LiCl
Relative to: input library
Reading: higher = stronger binding
Library: 7-deaza-guanosine replaces G
Oligonucleotide | log2 enrichment
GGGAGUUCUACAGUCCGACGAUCCUCAAGUCCUGUGCUACACAUCGUAUGUACCGAAUCGGAAGGGAAGGGGAAGGAAAGUAUUAUGUUACGCCGUUCGGAUCUGCACUUCCAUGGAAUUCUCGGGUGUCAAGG | -0.249
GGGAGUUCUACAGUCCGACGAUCUGGCCCUGGUGGCAUGCGGGGAGGAAGAGGUGGCCUCAUGGGUCGUGGUGGUCCCGGUGGAAUGUUCAGAGGUGGCCGUGGUGGAGACAGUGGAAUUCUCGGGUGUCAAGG | -0.0385
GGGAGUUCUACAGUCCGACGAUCAAGUCCUGUGCUACACAUCGUAUGUACCGAAUCGGGUUUUGGGUUUUGGGUUUUGGAAAGUAUUAUGUUACGCCGUUCGGAUCUGCACUUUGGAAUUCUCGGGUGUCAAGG | -1.71
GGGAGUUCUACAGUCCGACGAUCGUCCUGUGCUACACAUCGUAUGUACCGAAUCGGGGAAAAAAGGAAAAAAGGAAAAAAGGAAAGUAUUAUGUUACGCCGUUCGGAUCUGCAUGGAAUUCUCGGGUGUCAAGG | 0.0339
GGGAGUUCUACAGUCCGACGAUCGUCCUGUGCUACACAUCGUAUGUACCGAAUCGGGUUUUUGGGUUUGGGUUUUUUUGGGAAAGUAUUAUGUUACGCCGUUCGGAUCUGCACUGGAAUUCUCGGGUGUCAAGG | -1.95
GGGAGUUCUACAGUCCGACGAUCUGGCCCUGGUGGCAUGCGGGGAGGAAGAGGUGGCCUCAUGGAUCGUGGGGGUCCCGGUGGAAUGUUCAGAGGUGGCCGUGGUGGAGACAGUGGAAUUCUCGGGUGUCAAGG | 0.0553
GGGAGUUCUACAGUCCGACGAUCGCAGGAAGUAAAAACAAAUGGAAAUGCUUCAGAUAGUGGCAGGGGUGGGGGUUGCUAAGGAAAGGGUGGGAUGGGAGUGGGUAAAGAGUUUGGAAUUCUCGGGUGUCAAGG | 1.39
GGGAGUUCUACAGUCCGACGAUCCCUCAAGUCCUGUGCUACACAUCGUAUGUACCGAAUCGGGGCGGCGGGCGGGGAAAGUAUUAUGUUACGCCGUUCGGAUCUGCACUUCCAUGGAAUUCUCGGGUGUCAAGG | -1.03
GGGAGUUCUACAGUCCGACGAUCUCUAUGUAGCAUCCAGGUACUACUUCCUUUGGAAUGUCAGUAUUUAAUCUGAGCAAUGCGAUUGUGGGCAGUGGAAUCCUUGGGCUUUCUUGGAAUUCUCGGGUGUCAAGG | -2.37
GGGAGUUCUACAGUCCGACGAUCGUCCUGUGCUACACAUCGUAUGUACCGAAUCGGGUUUGGGAAAAAAAGGGUUUUUGGGAAAGUAUUAUGUUACGCCGUUCGGAUCUGCACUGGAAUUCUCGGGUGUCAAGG | -1.91
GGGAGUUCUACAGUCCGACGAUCGUCCUGUGCUACACAUCGUAUGUACCGAAUCGGGAAAAAGGGAAAAAGGGAAAAAGGGGAAAGUAUUAUGUUACGCCGUUCGGAUCUGCAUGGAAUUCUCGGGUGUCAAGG | 0.579

Block 3
Target: Prothrombin, mature alpha-thrombin (F2, Homo sapiens, UniProt P00734)
Technique: aptamer microarray, sandwich
Molecule type: DNA with 2'F-ANA
Matrix: in vitro
Concentration: 200 nM
Setting: whole 15-mer aptamer, many near background
With: Cy3 exosite-II aptamer, 400 nM
Reading: higher = stronger binding
Oligonucleotide: GGTTGGTGTGGTTGG
Modification | mean fluorescence intensity [a.u.]
2'F-ANA at 1 2 7 9 10 12 | 74.7
2'F-ANA at 1 2 5 6 8 9 10 13 14 | 61.9
2'F-ANA at 1 3 5 6 9 12 13 14 15 | 55.2
2'F-ANA at 1 2 5 10 11 13 14 | 44.7
2'F-ANA at 2 3 4 5 10 11 | 81.9
2'F-ANA at 2 5 6 7 8 9 12 13 14 15 | 58.9
2'F-ANA at 1 2 3 5 9 13 | 50.4
2'F-ANA at 1 5 6 7 9 13 14 | 45.4
2'F-ANA at 7 10 11 | 159
2'F-ANA at 3 5 7 8 10 12 13 | 63.7
2'F-ANA at 1 3 6 8 9 10 11 13 15 | 191
2'F-ANA at 1 4 6 8 11 12 13 14 15 | 56.9
2'F-ANA at 1 2 5 8 9 10 11 13 14 | 49.4
2'F-ANA at 1 2 4 5 7 8 10 12 | 57.1
2'F-ANA at 1 2 3 6 7 8 9 10 11 13 | 65.3
2'F-ANA at 1 2 3 4 7 9 10 11 14 | 53.9
2'F-ANA at 2 3 5 7 8 12 | 333
2'F-ANA at 3 6 8 10 11 | 459
2'F-ANA at 1 2 3 5 6 7 9 10 11 14 15 | 51.7
2'F-ANA at 1 2 3 4 6 8 9 11 14 | 55.1
2'F-ANA at 1 2 3 5 6 8 10 15 | 81.6
2'F-ANA at 3 6 7 8 9 10 13 14 15 | 341
2'F-ANA at 1 4 5 6 7 9 10 11 | 46.4
2'F-ANA at 1 2 4 13 14 | 48.2
2'F-ANA at 2 3 5 9 10 | 184

Block 4
Target: RNA binding protein fox-1 homolog 2, RRM domain, GST-SBP tag (RBFOX2, Homo sapiens, UniProt O43251-10, residues 100-194)
Technique: RNA Bind-n-Seq
Molecule type: RNA
Matrix: in vitro
Concentration: 365 nM
Setting: natural RNA segment, single round, ends assumed
Relative to: no-protein control
Reading: higher = stronger binding
Construct (chain): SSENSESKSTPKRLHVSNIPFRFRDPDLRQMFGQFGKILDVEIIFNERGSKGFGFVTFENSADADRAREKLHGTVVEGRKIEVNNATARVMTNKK
Oligonucleotide | RBNS enrichment (R)
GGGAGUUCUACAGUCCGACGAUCCCCUUUCCUUGCCUUGUGUCCGGAACCUUCACACCUUUACCCCUGCGCUAGCCCCUGGCUGAGAGGAGAGAACCUGUCCUCUGCCGGUGCUCAGUCAAGUGAUGGCUCCCUGGAAUUCUCGGGUGCCAA | 0.75
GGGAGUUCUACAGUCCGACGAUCGUUUGCAUUAAUAUCAAGGCAAAAAGCAUUCAUAGAUACAUGCAUCUGAUUUGGUAUUGUGAUUUACUUCAGACCCUGAAACCAAAUAUCUGAUCUUCCAUUAGACUUAGUGGAAUUCUCGGGUGCCAA | 1.43
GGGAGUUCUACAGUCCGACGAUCACAGAAGCAUAGACAAGUAUAUGAGCCCUUAUGUCCUUAAUGCCAAUCAACUAGAUUGACCUAGGUUAAAAUUUCAAAAGGCUCAUUUUCUCCCAAAGCUAAAUCUUUAUUGGAAUUCUCGGGUGCCAA | 0.403
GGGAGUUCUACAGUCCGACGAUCAUAUAUUGUUUGUUUGUUUGUUUGUUGACAGAGAAAAAUUGGUAUUUAUUUUUCUAUUAUAGCCAUAUUUAUAUAUUUAUGCACUUGUAAAUAAAUGUAUAUGUGUUUCUUGGAAUUCUCGGGUGCCAA | 1.81
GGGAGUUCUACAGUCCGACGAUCUGGGAGGCCGAGGCUGGCAGAUCACUUGAGGCUGGGAGUUAGAGACCAACCUGGCUAACAUGGCAAAACCUCGUCUCUACUAAAAAUACAAAAAUCAGCCCGGCGUGGUGUGGAAUUCUCGGGUGCCAA | 0.281
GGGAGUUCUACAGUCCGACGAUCCCCUCUGUGCCUGUAGGAAUGCUCAGUGGAGCUGACCGAGGAAGAAAAUAAAAGAGCCAGUCAUUGAGCCUUGGUUUCUGAAUGUCUGUGAGGAUGCUGUGGGUGGGGGCUGGAAUUCUCGGGUGCCAA | 0.917
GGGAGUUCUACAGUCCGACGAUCUAGAAUGUGGUAAUGGACAUAUUACUGAGCCUCUCCAUUUGGAACCCAGUGGAGUUGGGAUUUCUAGACCCUCUUUCUGUUUGGAUGGUGUAUGUGUAUAUGCAUGGGGAUGGAAUUCUCGGGUGCCAA | 8.46
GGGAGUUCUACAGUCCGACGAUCAAUCUGCUCAGGAGACCUGGAGGAGCAGAGGAUAAUUAGCAUCUCAGGUUAAGUGUGAGUAAUCUGAGAAACAAUGACUAAUUCUUGCAUAUUUUGUAACUUCCAUGUGAUGGAAUUCUCGGGUGCCAA | 1.62
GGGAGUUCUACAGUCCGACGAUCGUGAGCCACUUCCCUUCCCUGCUGCCAGGGGCACGUCCCCCAUCCCCGACUACCCUAUUUAUUAUUGUAGCUAUUUAUUUAUUUAUUGAGGAUGUGCCCCGAGCGCACCCUGGAAUUCUCGGGUGCCAA | 0.365

Excerpt of the above (block 3):
Modification | mean fluorescence intensity [a.u.]
2'F-ANA at 1 4 6 8 11 12 13 14 15 | 56.9
2'F-ANA at 1 2 3 4 6 8 9 11 14 | 55.1
2'F-ANA at 1 2 3 6 7 8 9 10 11 13 | 65.3
2'F-ANA at 1 2 3 5 9 13 | 50.4
2'F-ANA at 1 2 5 10 11 13 14 | 44.7
2'F-ANA at 1 2 5 6 8 9 10 13 14 | 61.9
2'F-ANA at 1 3 6 8 9 10 11 13 15 | 191
2'F-ANA at 1 4 5 6 7 9 10 11 | 46.4
